Experimental data of several laboratories.
Numbered parts are unrelated; each lists some results of a single study. Positions count from the first letter of the parent shown.
Sequence of UniProt Q16539 (whole entry, looked up): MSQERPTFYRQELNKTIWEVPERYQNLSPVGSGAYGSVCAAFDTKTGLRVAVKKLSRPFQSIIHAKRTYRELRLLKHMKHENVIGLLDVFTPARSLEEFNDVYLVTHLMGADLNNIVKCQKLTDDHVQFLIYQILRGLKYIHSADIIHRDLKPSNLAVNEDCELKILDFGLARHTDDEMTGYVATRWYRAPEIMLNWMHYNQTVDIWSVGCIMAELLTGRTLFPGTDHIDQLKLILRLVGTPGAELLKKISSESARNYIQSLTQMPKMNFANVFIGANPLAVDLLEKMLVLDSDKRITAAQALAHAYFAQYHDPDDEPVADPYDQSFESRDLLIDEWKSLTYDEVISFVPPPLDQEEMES
Sequence of UniProt Q9HBY8 (whole entry, looked up): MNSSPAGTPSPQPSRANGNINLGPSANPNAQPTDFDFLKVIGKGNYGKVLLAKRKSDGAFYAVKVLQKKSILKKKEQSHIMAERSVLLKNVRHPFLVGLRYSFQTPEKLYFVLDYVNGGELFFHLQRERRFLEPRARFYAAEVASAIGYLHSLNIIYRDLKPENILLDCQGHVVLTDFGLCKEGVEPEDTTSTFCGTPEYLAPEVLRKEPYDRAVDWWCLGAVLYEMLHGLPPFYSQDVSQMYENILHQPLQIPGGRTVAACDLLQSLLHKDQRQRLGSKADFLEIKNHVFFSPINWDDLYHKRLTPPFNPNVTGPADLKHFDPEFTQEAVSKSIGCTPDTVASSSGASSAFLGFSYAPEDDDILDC
Sequence of UniProt P49761 (whole entry, looked up): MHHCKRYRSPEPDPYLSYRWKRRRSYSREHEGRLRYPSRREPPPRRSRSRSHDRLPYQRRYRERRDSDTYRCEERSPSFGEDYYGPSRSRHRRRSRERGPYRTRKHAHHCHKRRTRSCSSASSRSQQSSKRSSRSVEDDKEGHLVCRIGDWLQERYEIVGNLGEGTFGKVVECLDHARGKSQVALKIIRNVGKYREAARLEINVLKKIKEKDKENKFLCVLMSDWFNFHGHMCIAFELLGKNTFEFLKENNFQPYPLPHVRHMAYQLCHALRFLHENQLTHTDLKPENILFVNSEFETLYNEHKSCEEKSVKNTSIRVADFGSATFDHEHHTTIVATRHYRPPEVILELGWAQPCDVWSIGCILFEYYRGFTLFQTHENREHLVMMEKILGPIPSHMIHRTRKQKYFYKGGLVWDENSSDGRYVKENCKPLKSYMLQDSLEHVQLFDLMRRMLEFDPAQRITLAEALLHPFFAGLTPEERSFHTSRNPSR
Sequence of UniProt Q9Y2H1 (whole entry, looked up): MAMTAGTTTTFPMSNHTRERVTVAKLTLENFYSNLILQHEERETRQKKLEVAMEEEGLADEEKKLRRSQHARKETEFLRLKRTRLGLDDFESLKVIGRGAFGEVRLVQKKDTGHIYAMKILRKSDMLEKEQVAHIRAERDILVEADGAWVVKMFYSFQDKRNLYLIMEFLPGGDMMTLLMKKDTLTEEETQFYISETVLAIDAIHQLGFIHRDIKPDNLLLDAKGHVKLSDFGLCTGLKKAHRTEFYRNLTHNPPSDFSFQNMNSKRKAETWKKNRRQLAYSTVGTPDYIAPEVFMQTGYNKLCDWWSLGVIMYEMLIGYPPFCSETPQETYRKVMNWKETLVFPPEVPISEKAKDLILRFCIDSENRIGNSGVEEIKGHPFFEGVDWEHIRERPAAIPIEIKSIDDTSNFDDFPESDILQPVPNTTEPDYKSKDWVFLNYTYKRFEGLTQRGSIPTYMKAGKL
Sequence of UniProt Q8WXR4 (whole entry, looked up): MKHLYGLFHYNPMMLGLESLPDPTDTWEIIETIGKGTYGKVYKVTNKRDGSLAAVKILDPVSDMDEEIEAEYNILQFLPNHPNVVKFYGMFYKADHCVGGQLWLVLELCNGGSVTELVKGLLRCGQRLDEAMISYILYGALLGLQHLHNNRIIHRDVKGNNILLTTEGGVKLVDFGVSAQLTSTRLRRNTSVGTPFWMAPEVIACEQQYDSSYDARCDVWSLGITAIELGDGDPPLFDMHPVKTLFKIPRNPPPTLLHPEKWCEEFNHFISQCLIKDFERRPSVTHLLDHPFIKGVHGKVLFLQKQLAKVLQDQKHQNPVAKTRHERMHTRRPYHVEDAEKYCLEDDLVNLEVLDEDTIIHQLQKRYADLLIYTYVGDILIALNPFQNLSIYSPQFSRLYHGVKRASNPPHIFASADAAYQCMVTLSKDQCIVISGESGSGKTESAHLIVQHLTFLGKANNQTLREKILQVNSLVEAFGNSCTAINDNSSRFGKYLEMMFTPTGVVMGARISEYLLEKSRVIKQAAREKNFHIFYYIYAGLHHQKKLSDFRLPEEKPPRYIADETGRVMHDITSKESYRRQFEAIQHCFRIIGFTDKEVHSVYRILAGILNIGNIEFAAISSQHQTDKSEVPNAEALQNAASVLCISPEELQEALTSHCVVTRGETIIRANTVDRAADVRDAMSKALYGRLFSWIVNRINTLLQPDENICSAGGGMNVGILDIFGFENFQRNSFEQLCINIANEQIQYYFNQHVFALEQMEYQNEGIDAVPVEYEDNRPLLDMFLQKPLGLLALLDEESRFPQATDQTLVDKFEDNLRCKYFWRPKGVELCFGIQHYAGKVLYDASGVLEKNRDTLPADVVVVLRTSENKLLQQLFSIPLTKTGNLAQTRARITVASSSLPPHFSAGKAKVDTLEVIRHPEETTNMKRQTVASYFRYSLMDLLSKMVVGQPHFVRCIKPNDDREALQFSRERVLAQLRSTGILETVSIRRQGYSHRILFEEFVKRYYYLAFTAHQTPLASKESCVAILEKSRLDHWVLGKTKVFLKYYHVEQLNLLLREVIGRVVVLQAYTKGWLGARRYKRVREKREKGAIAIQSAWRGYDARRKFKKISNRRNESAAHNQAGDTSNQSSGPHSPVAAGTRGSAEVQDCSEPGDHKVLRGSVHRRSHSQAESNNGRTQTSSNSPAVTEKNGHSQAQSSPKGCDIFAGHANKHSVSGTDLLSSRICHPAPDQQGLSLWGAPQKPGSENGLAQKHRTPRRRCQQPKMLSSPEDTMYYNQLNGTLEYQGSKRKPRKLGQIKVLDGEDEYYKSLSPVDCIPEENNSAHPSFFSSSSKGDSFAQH
Sequence of UniProt P10721 (whole entry, unmodified, looked up): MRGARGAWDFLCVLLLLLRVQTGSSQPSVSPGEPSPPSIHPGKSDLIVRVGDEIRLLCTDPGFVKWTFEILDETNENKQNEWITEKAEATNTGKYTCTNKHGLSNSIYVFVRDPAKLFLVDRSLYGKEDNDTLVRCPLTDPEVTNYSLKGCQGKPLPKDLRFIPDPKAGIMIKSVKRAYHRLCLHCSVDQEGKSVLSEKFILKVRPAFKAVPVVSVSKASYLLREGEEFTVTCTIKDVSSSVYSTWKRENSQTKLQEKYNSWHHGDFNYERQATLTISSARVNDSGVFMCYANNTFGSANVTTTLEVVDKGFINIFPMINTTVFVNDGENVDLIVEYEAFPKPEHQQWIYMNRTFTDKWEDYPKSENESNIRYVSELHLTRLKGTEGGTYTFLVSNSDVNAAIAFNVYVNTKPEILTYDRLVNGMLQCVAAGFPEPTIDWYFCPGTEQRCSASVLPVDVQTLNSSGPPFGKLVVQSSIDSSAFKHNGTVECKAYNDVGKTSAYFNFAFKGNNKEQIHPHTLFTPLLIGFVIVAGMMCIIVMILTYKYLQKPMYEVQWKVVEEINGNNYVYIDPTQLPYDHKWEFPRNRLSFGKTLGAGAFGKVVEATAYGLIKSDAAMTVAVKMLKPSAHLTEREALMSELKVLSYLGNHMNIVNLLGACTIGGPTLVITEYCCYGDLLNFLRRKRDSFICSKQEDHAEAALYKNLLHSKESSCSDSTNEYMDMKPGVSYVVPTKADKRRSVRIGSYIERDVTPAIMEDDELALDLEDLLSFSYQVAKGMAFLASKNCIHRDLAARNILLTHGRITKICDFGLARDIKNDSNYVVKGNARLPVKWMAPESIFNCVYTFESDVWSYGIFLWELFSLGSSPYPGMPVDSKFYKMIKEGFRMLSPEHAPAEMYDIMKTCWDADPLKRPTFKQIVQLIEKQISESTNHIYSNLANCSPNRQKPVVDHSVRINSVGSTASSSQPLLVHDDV
Sequence of UniProt Q13237 (whole entry, looked up): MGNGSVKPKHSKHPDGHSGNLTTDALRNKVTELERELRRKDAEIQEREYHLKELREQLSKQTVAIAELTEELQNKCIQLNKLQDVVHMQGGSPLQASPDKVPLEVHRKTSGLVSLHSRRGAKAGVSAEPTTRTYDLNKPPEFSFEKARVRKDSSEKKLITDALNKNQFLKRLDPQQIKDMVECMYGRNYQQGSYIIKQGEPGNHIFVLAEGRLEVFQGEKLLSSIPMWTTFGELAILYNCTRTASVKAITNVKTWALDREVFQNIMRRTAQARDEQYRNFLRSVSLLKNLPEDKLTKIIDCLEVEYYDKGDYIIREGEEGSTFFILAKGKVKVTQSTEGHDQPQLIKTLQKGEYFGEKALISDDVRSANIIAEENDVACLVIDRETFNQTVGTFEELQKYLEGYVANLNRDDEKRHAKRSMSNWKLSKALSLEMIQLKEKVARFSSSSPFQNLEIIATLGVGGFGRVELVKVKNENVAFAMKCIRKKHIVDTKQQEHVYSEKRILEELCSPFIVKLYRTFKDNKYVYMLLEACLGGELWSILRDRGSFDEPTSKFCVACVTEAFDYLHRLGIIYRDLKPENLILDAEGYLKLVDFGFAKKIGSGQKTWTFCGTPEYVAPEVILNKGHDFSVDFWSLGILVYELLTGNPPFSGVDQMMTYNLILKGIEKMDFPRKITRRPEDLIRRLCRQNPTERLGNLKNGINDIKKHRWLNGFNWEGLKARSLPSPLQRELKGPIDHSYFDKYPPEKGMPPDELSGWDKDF

Series 1
Target: CCNE1, cyclin fold, Cln2 fusion (human)
Technique: yeast growth competition, sequencing
Matrix: yeast
Notes: weak parent motif
Relative to: not given
Direction: higher = stronger binding
Starting sequence: SLBP docking peptide (human); ARYKRKLLINDFG
`K6N` — result for “normalised enrichment score”: 1.68.
`Y3P`: “normalised enrichment score” 0.173.
`K4V` — result for “normalised enrichment score”: 0.746.
Under “normalised enrichment score”, `Y3H` is recorded as 0.561.
Under “normalised enrichment score”, `Y3D` is recorded as 0.702.
Under “normalised enrichment score”, `R2I` is recorded as 0.916.
`R2T`: “normalised enrichment score” 1.42.
Under “normalised enrichment score”, `R2S` is recorded as 0.169.

Series 2
SMILES: O=C(Nc1ccc(Oc2ccc(F)cc2)cc1)N1CCc2ncccc2[C@H]1c1ccc(F)cc1
Technique: competition with immobilised ligand
Concentration: 1 µM
The remaining binding was 100% (ACVR2A (Homo sapiens, UniProt P27037); cell-free assay).
For RIOK3 (Homo sapiens, UniProt O14730); cell-free assay: remaining binding read 96%.
It gave 100% for remaining binding (TNNI3K (Homo sapiens, UniProt Q59H18); cell-free assay).
The remaining binding was 89% (Aurora kinase B (AURKB, Homo sapiens, UniProt Q96GD4); cell-free assay).
It gave 100% for remaining binding (SGK2 (Homo sapiens, UniProt Q9HBY8); cell-free assay).
EGFR (Homo sapiens, UniProt P00533, del747-752/P753S); cell-free assay — remaining binding: 100%.
The remaining binding was 99% (FLT3 (Homo sapiens, UniProt P36888, ITD); cell-free assay).
It gave 92% for remaining binding (CDK11A (Homo sapiens, UniProt Q9UQ88); binding).
PRKG2 (Homo sapiens, UniProt Q13237); cell-free assay — remaining binding: 100%.
The remaining binding was 94% (Cyclin-dependent kinase 4, with cyclin D3 (CDK4, Homo sapiens, UniProt P11802); cell-free assay).
For NEK6 (Homo sapiens, UniProt Q9HC98); cell-free assay: remaining binding read 100%.
The remaining binding was 76% (STK38L (Homo sapiens, UniProt Q9Y2H1); cell-free assay).
KIT (Homo sapiens, UniProt P10721, D816H); cell-free assay — remaining binding: 89%.
For NEK4 (Homo sapiens, UniProt P51957); cell-free assay: remaining binding read 94%.

Series 3
Target: Phosphate system positive regulatory protein PHO4, full length, GST-tagged (PHO4, Saccharomyces cerevisiae, UniProt P07270, residues 1-312)
Technique: competition protein-binding microarray
Molecule type: double-stranded DNA, one strand shown
Matrix: in vitro
Concentration: 2 µM
Notes: whole 60-bp probe, lowest competitor level
Together with: Cbf1 competitor, 0.05 µM
Direction: higher = stronger binding
Target sequence (chain): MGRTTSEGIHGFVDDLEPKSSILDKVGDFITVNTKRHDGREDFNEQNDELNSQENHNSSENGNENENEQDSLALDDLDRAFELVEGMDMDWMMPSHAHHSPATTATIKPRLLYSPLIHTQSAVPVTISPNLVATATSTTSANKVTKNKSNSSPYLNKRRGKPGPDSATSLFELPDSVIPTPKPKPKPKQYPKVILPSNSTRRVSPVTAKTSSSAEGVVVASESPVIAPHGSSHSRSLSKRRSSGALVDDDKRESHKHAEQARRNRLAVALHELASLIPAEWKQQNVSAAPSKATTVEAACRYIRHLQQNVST
For `AAATTACTAAGTTGGACGGTGGGTGACGCCGTATGAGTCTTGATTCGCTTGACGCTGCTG`, the fluorescence intensity was 4220 a.u.
The fluorescence intensity of `CTCAGTACTGATTGACACATGATTATACTGCGAGACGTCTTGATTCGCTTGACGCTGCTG` is reported as 7250 a.u.
The fluorescence intensity of `GCTCCCTCAGCCCCGGGCGTGCTTTGACGCTATTCCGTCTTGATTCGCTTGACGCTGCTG` is reported as 6940 a.u.
`AAAGCGGTAATTTGTCACTGCACTTCACATATCTATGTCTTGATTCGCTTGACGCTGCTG` gave a fluorescence intensity of 4020 a.u.
With `CTTTCCCGATCTTGTAGCGTGGGTGTAGCACATTTGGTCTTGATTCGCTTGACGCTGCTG` the fluorescence intensity was 7940 a.u.
With `ATAAAAGAATGCCATCACGTGTTTCCAATCCATTCGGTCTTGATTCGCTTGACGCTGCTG` the fluorescence intensity was 15600 a.u.
`TGCGCAACAACTTGTCACGCAACTTTATGTCTAGAAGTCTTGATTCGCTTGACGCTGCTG` gave a fluorescence intensity of 5180 a.u.
The fluorescence intensity of `AATTTCGGAGAATCTCACATGCCACTGAAGATTAAAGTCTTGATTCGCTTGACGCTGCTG` is reported as 6590 a.u.

Series 4
Structure (SMILES): N#C/C(=C\c1ccc(O)c(O)c1)C(=O)NCc1ccccc1
Observed: enzyme activity
Action: inhibitor
Concentration: 0.5 µM
Relative to: control
It gave 94.2% for remaining activity (RPS6KA4 (Homo sapiens, UniProt O75676)).
MINK1 (Homo sapiens, UniProt Q8N4C8) — remaining activity: 97.9%.
For NEK3 (Homo sapiens, UniProt P51956): remaining activity read 95.1%.
For CLK3 (Homo sapiens, UniProt P49761): remaining activity read 125%.
For CLK4 (Homo sapiens, UniProt Q9HAZ1): remaining activity read 94%.
For ROCK1 (Homo sapiens, UniProt Q13464): remaining activity read 99.7%.
The remaining activity was 101% (DCLK2 (Homo sapiens, UniProt Q8N568)).
The remaining activity was 101% (PAK3 (Homo sapiens, UniProt O75914)).
It gave 101% for remaining activity (GRK4 (Homo sapiens, UniProt P32298)).
The remaining activity was 88.2% (MARK2 (Homo sapiens, UniProt Q7KZI7)).
The remaining activity was 88.3% (Myosin-IIIb (MYO3B, Homo sapiens, UniProt Q8WXR4)).
It gave 95.8% for remaining activity (KDR (Homo sapiens, UniProt P35968)).
MAPK14 (Homo sapiens, UniProt Q16539) — remaining activity: 108%.
